Assay results from different studies.
Numbered parts are unrelated; each lists some results of a single study.

Set 1 — technique: RNAcompete; form: RNA; matrix: in vitro; concentration: 20 nM; setting: 7-mer, probes averaged, single round; reference: mean of 7-mers; direction: higher = stronger binding
Target: PABPC1L2, full length, GST fusion (mouse, UniProt A0ABA7IW68)
Residues (chain): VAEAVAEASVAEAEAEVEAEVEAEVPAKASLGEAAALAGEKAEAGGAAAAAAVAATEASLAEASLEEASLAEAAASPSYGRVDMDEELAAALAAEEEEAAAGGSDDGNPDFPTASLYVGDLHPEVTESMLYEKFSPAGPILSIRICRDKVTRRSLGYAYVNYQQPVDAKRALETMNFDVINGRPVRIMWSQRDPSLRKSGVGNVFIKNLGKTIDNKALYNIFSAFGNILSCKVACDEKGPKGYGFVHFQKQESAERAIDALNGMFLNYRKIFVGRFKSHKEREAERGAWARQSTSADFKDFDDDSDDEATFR
Oligonucleotide	7-mer Z-score
ACAAGCG	0.0642
AUCGCUU	-0.278
AAUAUGC	0.454
GGUUCGA	-0.0808

Set 2 — technique: RNA Bind-n-Seq; form: RNA; matrix: in vitro; concentration: not given; reference: input RNA pool; direction: higher = stronger binding
Target: RING finger protein unkempt homolog, zinc fingers 1-6, GST-SBP tag (UNK, Homo sapiens, UniProt Q9C0B0, residues 30-357)
Setting: RNA with constant flanks, human and mouse sites, ends assumed
All sequences stand within: GGGAGUUCUACAGUCCGACGAUC … CAACAGAGGAUUGAGCAUCA
Residues (chain): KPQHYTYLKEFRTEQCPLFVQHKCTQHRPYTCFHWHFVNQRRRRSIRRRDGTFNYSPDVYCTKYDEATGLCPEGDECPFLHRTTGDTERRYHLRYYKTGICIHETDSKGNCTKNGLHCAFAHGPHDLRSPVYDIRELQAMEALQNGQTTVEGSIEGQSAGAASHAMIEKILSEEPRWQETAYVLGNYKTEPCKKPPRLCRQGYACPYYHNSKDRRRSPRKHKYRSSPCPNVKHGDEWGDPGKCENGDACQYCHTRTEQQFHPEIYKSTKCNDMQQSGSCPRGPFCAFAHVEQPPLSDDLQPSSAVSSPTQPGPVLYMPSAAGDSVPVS
Oligonucleotide	bound/input enrichment
AUCACCACCAAGGCUGAUAUCUGGGCCUUGGGAUGUUUACUGUAUAAACUUUGUUUCUUCACUCUUCCUUUUGGUGAGAGUCAGGUUGCUAUCUGUGAUGGCAGCUUCACCAUCCCAGAC	0.0702 ratio
GUUCCAGACCCUGAGCUGAUUGAUCUGAUCUACUGUGGUCGGAAGCUAAAAGAUGACCAGACACUUGACUUCUAUGGCAUUCAACCUGGGUCCACUGUCCAUGUUCUGCGAAAGUCCUGG	0.112 ratio
UUGGAAAAUGGAUAUACUUUAUUUGACUACGACGUUGGACUGAAUGAUAUAAUUCAGCUGCUAGUUCGUCCAGACUCCAGUCUUCCUAGCACAUCUAAGCAGAAUGAUGCUCAGGUUAAA	0.22 ratio
GAGGAAAAAAAUCCAACUUCAAGCUCUUUGCACUAGUGAUGAUUAUGUGAUAUAUCAAUGUAAUAUUUAGCCAGUGGUCAUUAGAUGUUACUGUGCUUAAACACAUCUGAUACUCAUGCA	0.317 ratio
GAACUUCAAGCUUCACAGAUAUUACAGAACAAGAAACAUAAAAAUUCUCAAUUAGAUAAAAAUAGUGAAGUUUAUCAGGAAGUUCAAGCUAUGUUUGAUACACUUGGUAUACCCAAGUCA	0.713 ratio

Set 3 — technique: protein-binding microarray; form: double-stranded DNA, one strand shown; matrix: in vitro; concentration: 2540 nM top; setting: 60-bp whole probe; with: salmon DNA 0.4 mg/ml; reference: random background probes; direction: higher = stronger binding; all sequences stand within: GCCTAGCAC … GTCTTGATTCGCTTGACGCTGCTG
Target: Interferon regulatory factor 3, full length, phosphomimetic (IRF3, Homo sapiens, UniProt Q14653, residues 1-427, S386D/S396D/S398D/S402D/T404D/S405D)
Construct (chain): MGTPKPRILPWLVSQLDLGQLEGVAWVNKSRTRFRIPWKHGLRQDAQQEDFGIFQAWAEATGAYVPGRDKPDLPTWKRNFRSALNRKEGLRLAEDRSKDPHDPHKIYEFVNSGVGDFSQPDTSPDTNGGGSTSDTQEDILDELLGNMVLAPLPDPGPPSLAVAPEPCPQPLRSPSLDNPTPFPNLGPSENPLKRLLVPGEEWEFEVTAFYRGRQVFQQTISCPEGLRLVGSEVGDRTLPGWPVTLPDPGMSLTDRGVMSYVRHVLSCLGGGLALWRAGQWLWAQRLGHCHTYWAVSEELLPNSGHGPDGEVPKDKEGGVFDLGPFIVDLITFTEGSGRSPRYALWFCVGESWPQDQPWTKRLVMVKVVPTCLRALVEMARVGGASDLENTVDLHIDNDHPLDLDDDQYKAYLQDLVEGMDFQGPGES
Oligonucleotide	fitted relative affinity [z-score]
TGCTTCCTAATTCTCTTTTCGTGCTAG	1.52
TTAAATTTCAGACTGGATTAGTGCTAG	0.629
TTAGAACTGAGTCTCGAATAGTGCTAG	-0.408
GATGAACTGAGACTGGAGACGTGCTAG	-0.508
AAAAAAAATGGAAATCTACCCGTGCTA	-0.3
TTAGGATTCGGTTTCGGTTAGTGCTAG	8.14
GACGATATCGGGGCTGGAGACGTGCTA	-0.351
GACGATTTCGGGTTTCCAGACGTGCTA	3.21

Mixed results
Molecule	target	test	system	setting	how to read	measurement	result
PhoQ, residues 284 288 289 292 302 303 AGCYAI	PhoP, residues 12 14 15 18 19 NQGLL (Escherichia coli, UniProt P23836)	Sort-seq, item: YFP reporter	E. coli	PhoQ-PhoP variant library, with: 10 µM Mg2+	reference: high Mg2+ state, higher = stronger signaling	fold induction	4.2
